Results of several laboratories.
A part holds a random share of what one study measured. Substitutions count along the parent as printed.

Sample 1 — technique: RNA Bind-n-Seq; form: RNA; sample: in vitro; concentration: 365 nM; relative to: no-protein control; reading: higher = stronger binding; endpoint: RBNS enrichment (R)
Target: RNA binding protein fox-1 homolog 2, RRM domain, GST-SBP tag (RBFOX2, Homo sapiens, UniProt O43251-10, residues 100-194)
Setting: natural RNA segment, single round, ends assumed
Target sequence (chain): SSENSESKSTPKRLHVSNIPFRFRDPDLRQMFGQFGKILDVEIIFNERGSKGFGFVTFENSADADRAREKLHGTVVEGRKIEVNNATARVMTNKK
Sequence = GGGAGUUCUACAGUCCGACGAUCAUAGGCCUUCCUGGUGGUUUUGUUUAACCCCAUGACCCUCCCCAACUCUUCUCAGAGCUUUGGGGGUUAUGUGAAAGGCUGACUAGUUGAGGGUUUAGCUGCAGGGAAGGUGGAAUUCUCGGGUGCCAA; result = 0.339
Sequence = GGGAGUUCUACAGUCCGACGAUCGAAUGGUUUACAUAUUUCUGCAAAUGGAGAAAAUGUAAAUAUAAACCCAUGACCAUUUACUAAGUGAAUGAUGUAUAUUUCCCAUUAUCAGAAGUAUAAUGAAGUUGGAAUGGAAUUCUCGGGUGCCAA; result = 0.428
Sequence = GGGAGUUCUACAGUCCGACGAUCCUCUACUGCUGAUUCUCACCUUGCUGGAAUUAUGCGUAACCAUCUCUACCAUAGCCAUGUGGUGCAAUGCAAACUGCUGUAAUUCAAGAGAGGAAAUUUCCUCACCUCCCUGGAAUUCUCGGGUGCCAA; result = 0.329
Sequence = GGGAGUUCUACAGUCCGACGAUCGCGCAGACAGUUGGGACGAAACUUCAGAGCCCAGGCAGUCCCUGAAUGACCAGGCCAGUGUUGUCACUGAGUGGUCCCCUGCUGGUUGGGAGUGAAGAGAAUCCAGGCUGUGGAAUUCUCGGGUGCCAA; result = 0.302
Sequence = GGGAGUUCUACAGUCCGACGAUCAAUGAUAUUUUAGAGUCUGAGUGACCCCUUUGACUAUCAGUUCUGAAGAGCAAUUCUCACUGGUAACUUGACAUCUCUCAAUUUCAGGAUCUUUGCCUCUCAUUAAAAGUUGGAAUUCUCGGGUGCCAA; result = 0.306
Sequence = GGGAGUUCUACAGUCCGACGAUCUUUUGUAGUUGUGGCAUCUUGUUGACAUCGAAUAUGACUUUGAUAAUAAAUACCAGUUCCUGAAAGUGCUUGCCUUUUUUGUUUUUGUAUAUUUUGUAGAGGUGGCCAUUUGGAAUUCUCGGGUGCCAA; result = 1.1
Sequence = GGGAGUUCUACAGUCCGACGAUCUUCUGCUGCCACUUGUGAAAACCGAAAAAAAACAAGACUACAUAGCACCGACUUUUUGAAAAUCAGAUAAACAUGGUUAUUGACAUUUUUUGAGUCAGAGUAGGGCUGGAUGGAAUUCUCGGGUGCCAA; result = 0.295
Sequence = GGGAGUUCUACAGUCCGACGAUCCACCAGCAGAGUAGCCGCCGCUGCUGUGAGCCUGGGGACGACAUGGCAGGCUGGUCCCCCUCCGUGAAAGUGUGGAUUCCUACUUCCUGCUCUAAGCUUUGACACGUCAAUGGAAUUCUCGGGUGCCAA; result = 0.558
Sequence = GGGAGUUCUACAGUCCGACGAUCAAAUUUUUAAUUAAUUUCAAAGCUUCCUCUGGCCAGGUAGACUUUUGUAUACAGACCAGGUGAGAGCCCUUUUGCCUUAGUGUGAAAAUGUAACAUUUUAUGCUUUUAAAUGGAAUUCUCGGGUGCCAA; result = 0.563
Sequence = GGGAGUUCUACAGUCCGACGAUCGGGCUGGCUAGAUGAUAUAGGUGACUGGCACCUAUUAAGAGUAUAUAACAUAAAUACCAUAAAAAGGAGGAAAUAAAGAUAAGUAAACAUCUCAUUUCUCAAAAAAAAAAUGGAAUUCUCGGGUGCCAA; result = 1.02
Sequence = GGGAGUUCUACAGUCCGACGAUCCCACUUAAAUAAAGUCUUUAAGUAGCUGAAGGAUUAACAGUCUGGUGGGAGGCAAGCCAUUGAACUGAACCACGAGGAAAGUAUAUUUUCUUCUUUUCUUUUCCUGCCAAUGGAAUUCUCGGGUGCCAA; result = 0.418
Sequence = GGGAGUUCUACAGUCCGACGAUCCCCUUAACCUAUCUCUUGGGACUUAGCCCGACCCUCCCUCUCAUUUCCCAUUAAGUCUGAGAGGCAAGAGCUAGGUUAGGCAAGGAGGUGGUUGGCCAGAGAUGGGGAACUGGAAUUCUCGGGUGCCAA; result = 0.269

Sample 2 — technique: DHFR PCA, deep sequencing; sample: yeast; together with: (+)-ABA 0.032 µM; relative to: wild-type fitted maximum; reading: higher = stronger binding; endpoint: relative binding score
Target: ABI1, truncated, D143A, DHFR fusion (Arabidopsis thaliana)
Setting: methotrexate growth selection, single substitutions
Parent: PYL1, truncated, DHFR fusion (Arabidopsis thaliana); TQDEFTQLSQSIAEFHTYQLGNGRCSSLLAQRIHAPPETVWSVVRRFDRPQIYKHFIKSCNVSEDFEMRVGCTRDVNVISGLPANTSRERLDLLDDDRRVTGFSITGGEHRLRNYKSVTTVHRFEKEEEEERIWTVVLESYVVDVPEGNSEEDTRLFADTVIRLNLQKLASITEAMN; partner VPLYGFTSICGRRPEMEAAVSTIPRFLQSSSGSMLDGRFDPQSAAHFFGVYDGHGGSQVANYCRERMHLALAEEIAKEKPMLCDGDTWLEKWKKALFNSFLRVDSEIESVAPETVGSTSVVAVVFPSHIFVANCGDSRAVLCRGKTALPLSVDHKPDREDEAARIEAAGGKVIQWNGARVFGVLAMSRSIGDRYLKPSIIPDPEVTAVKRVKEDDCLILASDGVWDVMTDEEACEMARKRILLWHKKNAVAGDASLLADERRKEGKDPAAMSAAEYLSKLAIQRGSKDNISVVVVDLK
Change = G71W; result = -2.68%
Change = V44I; result = 10.5%
Change = G23N; result = 23.1%
Change = L93M; result = 26%
Change = V62I; result = 11.9%
Change = E38K; result = 4.77%
Change = E130P; result = 62.9%
Change = D95T; result = 2.75%
Change = G107V; result = 3.17%
Change = V43C; result = -2.88%
Change = W41I; result = -17.9%
Change = A84H; result = 69.7%
Change = D95C; result = -3.59%
Change = V62K; result = 1.41%
Change = V161F; result = 15.8%
Change = W41N; result = -4.73%
Change = E139F; result = -17%
Change = S150K; result = 8.65%
Change = N114D; result = 5.12%
Change = Q167I; result = -2.62%
Change = P146Q; result = 21.8%
Change = R132D; result = 65.3%
Change = E128W; result = 5.61%

Sample 3 — target: CCNA2, cyclin fold, Cln2 fusion (human); technique: yeast growth competition, sequencing; sample: yeast; setting: strong parent motif; relative to: not given; reading: higher = stronger binding; endpoint: normalised enrichment score
Parent: BRCA2 docking peptide (human); PSIKRNLLNEFDR
Change = K4F; result = 3.22
Change = N9Y; result = 5.96
Change = F11Y; result = 3.18
Change = N9Q; result = 5.2
Change = S2D; result = 3.78
Change = S2K; result = 5.74
Change = N6G; result = 0.0728
Change = R13Q; result = 4.76
Change = I3D; result = -0.774
Change = P1K; result = 6.5
Change = E10C; result = 1.81
Change = R5H; result = 0.0656
Change = L8K; result = 3.12
Change = F11R; result = 1.18
Change = S2Y; result = 4.75
Change = D12H; result = 3.78
Change = D12S; result = 4.59
Change = P1A; result = 4.68
Change = P1E; result = 4.99

Sample 4 — target: MAFK, bZIP domain (human); technique: DHFR protein complementation; sample: yeast; relative to: wild-type JUN-FOS pair; reading: higher = stronger binding; endpoint: binding fitness
Setting: single substitutions, most at no-binding floor
Parent: JUN, bZIP domain (human); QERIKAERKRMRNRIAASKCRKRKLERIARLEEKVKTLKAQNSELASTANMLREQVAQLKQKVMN; partner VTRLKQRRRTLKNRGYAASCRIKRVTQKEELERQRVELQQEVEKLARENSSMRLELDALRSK
Change = A46D; result = -1.45 natural log
Change = S47L; result = -1.45 natural log
Change = A46C; result = -1.43 natural log
Change = E32G; result = -1.53 natural log
Change = E32I; result = -1.44 natural log
Change = A29R; result = -1.46 natural log
Change = E33S; result = -1.54 natural log
Change = L59A; result = -1.42 natural log
Change = V35M; result = -1.46 natural log
Change = V56G; result = -1.44 natural log
Change = V35F; result = -1.54 natural log
Change = Q41F; result = -1.48 natural log
Change = T37M; result = -1.45 natural log
Change = R53A; result = -1.39 natural log
Change = E33D; result = -1.38 natural log
Change = V35S; result = -1.47 natural log
Change = E54R; result = -1.46 natural log
Change = E33Q; result = -1.51 natural log
Change = T37S; result = -1.5 natural log

Excerpt of the above (sample 4):
Change = A29R; result = -1.46 natural log
Change = E33S; result = -1.54 natural log
Change = L59A; result = -1.42 natural log
Change = V35M; result = -1.46 natural log
Change = V56G; result = -1.44 natural log
Change = V35F; result = -1.54 natural log
Change = Q41F; result = -1.48 natural log
Change = T37M; result = -1.45 natural log
Change = R53A; result = -1.39 natural log
Change = E33D; result = -1.38 natural log
